# Measured values gathered from unrelated publications.
# Compare with care: the assays were run in different laboratories. Several values in a cell are separate wells, animals, samples, runs or records.
# Target: Aurora kinase A (AURKA, Homo sapiens, UniProt O14965)
# One construct used (O14965 1-403): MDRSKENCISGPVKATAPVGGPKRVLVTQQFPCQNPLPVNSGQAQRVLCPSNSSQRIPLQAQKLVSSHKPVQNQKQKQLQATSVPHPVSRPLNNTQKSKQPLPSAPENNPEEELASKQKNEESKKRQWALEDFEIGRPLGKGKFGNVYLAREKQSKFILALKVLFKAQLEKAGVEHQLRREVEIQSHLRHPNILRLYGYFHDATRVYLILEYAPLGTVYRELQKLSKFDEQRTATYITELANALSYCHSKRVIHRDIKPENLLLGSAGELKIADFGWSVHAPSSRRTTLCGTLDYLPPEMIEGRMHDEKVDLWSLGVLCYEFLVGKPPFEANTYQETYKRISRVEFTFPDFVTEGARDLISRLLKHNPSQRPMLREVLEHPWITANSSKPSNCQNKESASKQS
SMILES,assay,conditions,how to read,endpoint,value
C=CC(=O)Nc1cccc(-c2cnc3[nH]cc(C(=O)NC(C)(C)C)c3n2)c1,"enzyme activity, inhibitor",0.1 µM,,inhibition,34%
CNS(=O)(=O)Nc1nccc(Cc2c(C)c3ccc(Oc4ncccc4F)cc3oc2=O)c1F,"cell-free assay, competition with immobilised ligand",10 µM,,remaining binding,100%
C=CC(=O)N1CCc2ccc(-n3c(=O)ccc4cnc5ccc(-c6cnn(C)c6)cc5c43)cc21,KINOMEscan,1 µM,reference: DMSO control,remaining binding,100%
CNC(=O)C[C@H](Cc1ccc(C#N)cc1)NC(=O)c1cc(-c2ccc(CN[C@H](C)c3ccc(C)cc3)o2)ccc1Cl,"enzyme activity, inhibitor",1 µM,,activity vs control,100%
C[C@H]1CN(C(=O)c2cn(-c3ccnc(N)n3)c3cc(C#CC4(O)CCCCC4)ccc23)CCN1,"enzyme activity, inhibitor, FRET",1 µM,,inhibition,7%
CC(=O)N1c2ccc(-c3ccc(CNC(=O)c4cn5cc(-c6cnc(N)nc6)nc(N6CCOCC6)c5n4)cc3)cc2CC[C@@H]1C,KINOMEscan,10 µM,,remaining binding,82%
COc1ccc(NC(=O)Nc2ccc3c(c2)C(=O)N(C(C)CO)CC(C)C(CN(C)Cc2ccc4c(c2)OCO4)O3)cc1 (centres unmarked),kinase activity,0.03 µM,reference: control,remaining activity,94%
COCC12C(=O)NC3C4(C(OC)CC1O)C1CC5(O)C(OC)C(O)C(OC(C)=O)(C1C5OC(=O)c1ccccc1)C3(O)C(OC)C24 (centres unmarked),"kinase activity, inhibitor, ProQinase kinase profiling",25 µM,reference: control,remaining activity,103% and 101%
Cc1cccc(O[C@H]2CCC[C@@H](C(C)CNCc3ccncc3)C2)c1 (relative stereo),"enzyme activity, inhibitor",1 µM,,inhibition,-17%
O=C=[N][Ru-4]123([n]4c5ccc(O)cc5c5c6c(c7cc(F)c[n+]1c7c54)C(=O)NC6=O)[S+]1CC[S+]2CC[S+]3CC1 (centres unmarked),enzyme activity,"100 nM, human enzyme, added: 10 µM ATP",reference: untreated,remaining activity,117%
O=c1c(-c2ccc(Cl)c(CN3CCOCC3)c2)coc2cc(O)ccc12,"enzyme activity, inhibitor",1 µM,,remaining activity,97%
O=C(O)CCC(=O)c1cccc(NS(=O)(=O)c2c[nH]c3ncccc23)c1,"kinase activity, radiometric",10 µM,,remaining activity,56%
NC(=O)C[C@H]1CCc2sc3ncnc(O[C@H]4CC[C@H](N5CCOCC5)CC4)c3c21,"enzyme activity, inhibitor",10 µM,,inhibition,15%
C=CC(=O)N1CCCC(n2c(=O)c3ncccc3n(Cc3ccc(Oc4ccccc4)cc3)c2=O)C1 (centres unmarked),"cell-free assay, competition with immobilised ligand",1 µM,,remaining binding,72%

# Some of these lines once more:
SMILES,assay,conditions,how to read,endpoint,value
Cc1cccc(O[C@H]2CCC[C@@H](C(C)CNCc3ccncc3)C2)c1 (relative stereo),"enzyme activity, inhibitor",1 µM,,inhibition,-17%
O=C(O)CCC(=O)c1cccc(NS(=O)(=O)c2c[nH]c3ncccc23)c1,"kinase activity, radiometric",10 µM,,remaining activity,56%
